Experimental data of several laboratories.
Parts stem from different laboratories: compare values within a part only.

Study 1 — technique: RNA Bind-n-Seq; molecule type: RNA; medium: in vitro; tested at: 365 nM; baseline: no-protein control; reading: higher = stronger binding; quantity: RBNS enrichment (R)
Target: RNA binding protein fox-1 homolog 2, RRM domain, GST-SBP tag (RBFOX2, Homo sapiens, UniProt O43251-10, residues 100-194)
Notes: natural RNA segment, single round, ends assumed
All sequences stand within: GGGAGUUCUACAGUCCGACGAUC … UGGAAUUCUCGGGUGCCAA
Residues (chain): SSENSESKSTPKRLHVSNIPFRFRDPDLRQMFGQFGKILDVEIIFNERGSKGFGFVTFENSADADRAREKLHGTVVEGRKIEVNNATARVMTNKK
GAGGCGGGUGCCUUUCCACCUUAAGUUGCUUAUAGUAUUUAAGAUGCUAAAUGUUUUAAUCAAGAGAAGCACUGAUCUUAUAAUACGAGGAUAAGAGAUUUUCUCACAGG: 0.503
AGAAAUAUAUUUUGAUCUAUUUUCCUAUGGAGUUGUUUCUAUUAUGACCAUUUAAUUUUGUUUUUAUUUAAUAGUAGUAUUUCCUUCCCUUUUAUCUAAUUUUUUAUAUG: 1.21
GCAUCUGAUUGGCAGGCAGGCCCAGGAUGUGCUGUGCCAAAGCCAGGUCUACUCCAAAGUCCUCUCUGCCAUCUUCGGACCAUCCUGGCCCUACUUCUGUGUGCUCGAGC: 0.354
UCAUCCCCAGCUGCCUAAGCUAGGGACACUCAAGUGCUUCCUUCCUUGCCCCAUCUUCCUCCCAACUGGAGGCCUCUGAGCCUCCCCUGUGCCUUGGGCCCUGAAGCCCC: 0.519
UCGGCUCAUAUGAGAGAGCAGGUUCCUGCCCUUGAAAAUGCCGGUAAGCUAUAGCAUAUGUUUUUUAAGACUUAAGCAUUUCAUGCUUUAAAAUACCUUCACAAGUGAAC: 0.271
GGUGUGUUCUGUGAUAAUGAAAAGCAUCAGAAAAGCUUUUGUACUUUGUGGUUUCCUCUAUUUUGAAUUUUUUGAUCAAAAAACUGAUUAGCAGAAUAUAGUUUGGAGUU: 0.868
UGGAGGCUUGCCAGAGAAGGUGGAGAAUGAAGUAGAACUCAGCUUCCCUCUCAGAGCCUGUGCCCGAAUCUUUAAUGUUCUCUGGGUGAAAGGUCCUGGGGAGAGCUUCG: 1.17
AUUCCUGUCGGCGGCCUGGGAUGGUCCGCCACGAGGAGCUUCCAGUGCAUGUUGCCAUGAGGCCUUUCCCCAGUGUGGCCCCAGCCCGACAGGCAUGCACCAGUGCCGCC: 8.69
GAUAAGUUUGAAAGGAAACUGCUAUUGAACUUAAGCAUCUCUAGCAGAGCAAUUUGAUCAGUAUAUAAAACCCUAGGAUGUGCUAGGUCUAAGAUGGAUUAAACAAGUAU: 0.584
UGCUAGGUUGAAGUUCACCAUGUUUAAAAAAAAUGGGGGGCAUGGAUUUACAUUACAAAGGCGUCCACGGUGUAUUAGUGACAUUCUUCCAUUGACAUUUAGAGUGAAAU: 0.367
GGCCUUCUUACUAACCUUGGACCGUGAUUGAGCCCAAGAAACCAGGGACUUACGCAUUUGGCCAAUGUCAAAAGAACAGAACUUUGCCCACUGCACACUUGCUGUGUACA: 0.505
GGCAUGCGUACAUGUCAGGUGUUGUUUGAGGUAAAUGAGCACUUCUCACUAAGCUUCGUGUAUAAAUGGAAUACAUUAUUUUUCAAACAAACGAAUAAAUGGCUUACAUG: 0.301

Study 2 — technique: RNA Bind-n-Seq; molecule type: RNA; medium: in vitro; tested at: not given; baseline: input RNA pool; reading: higher = stronger binding; quantity: bound/input enrichment
Target: RING finger protein unkempt homolog, zinc fingers 1-6, GST-SBP tag (UNK, Homo sapiens, UniProt Q9C0B0, residues 30-357)
Chain of UniProt Q9C0B0 (30-357, looked up): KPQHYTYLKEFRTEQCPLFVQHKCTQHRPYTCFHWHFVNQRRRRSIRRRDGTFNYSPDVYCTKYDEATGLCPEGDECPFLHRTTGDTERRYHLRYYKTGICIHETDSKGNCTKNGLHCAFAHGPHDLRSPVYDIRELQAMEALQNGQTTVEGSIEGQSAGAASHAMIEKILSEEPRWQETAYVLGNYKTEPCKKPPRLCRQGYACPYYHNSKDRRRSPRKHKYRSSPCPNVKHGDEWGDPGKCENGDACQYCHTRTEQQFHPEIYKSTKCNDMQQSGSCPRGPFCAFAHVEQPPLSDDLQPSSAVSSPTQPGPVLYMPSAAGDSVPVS
Notes: RNA with constant flanks, human and mouse sites, ends assumed
All sequences stand within: GGGAGUUCUACAGUCCGACGAUC … CAACAGAGGAUUGAGCAUCA
CUGAGCAGAACCAGCCUAAAAUUACAAGAGAAAGCUUCAGAAAGUGACGCAGAAAUCAAAGACAUGAAAGAGACCAUAUUUGAAUUGGAAGACCAGGUGGAGCAGCAUCGCGCCGUCAAG: 0.305 ratio
GAGAAGCGGGAGAAAAUGAAGCGGACACUCUUAAAGGAUUGGAAGACCCGUUUGAGCUACUUCUUGCAGAAUUCCUCUGCUCCUGGGAAGCCCAAAACUGGCAAGAAAAGCAAACAGCAA: 0.244 ratio
AUUUACCUUAACUCUAAAGCUACAGUAUUUUUAAGAAAUAGUAUUUUACCCUAGCAGUUAAUAAAAAUGCUUGUUAGCUUUGAGAAGUUAUUUCUAUUAGAUAUAUAUUUCUUUUAUUAG: 141 ratio
CCCAAGCUCAAGCUCUGGAUGGCGGCCAUGCAGCAAGACCCUGUGGCAUCCUCUCACAAAAUUGAUGCCAAGACCUACCGCGAGUACUUAAAUCUCUACCUACAGGACAGCCCCGAGGCC: 0.141 ratio
AGUUUGGGAUUUGGCUCUUACAUCAGUGAAGUAAAAGAAGUCUUGCAAGAGUGUAAAACAGUAGCAUUAAAAAGAAGAAAGGCCAGUUCUCGUUUGGAAAACCUUGGCAUUCCUGAAGAA: 1.07 ratio
AGGUUACUGAUGCAUCACAUCAGAGAUUGUUUACCAGAGUUGAAAACAAGAAUAAAUGUUCUAGCUGCUCAGUAUCAGUCUCUUCUAAAUAGCUACGGUGAACCCGUGGAUGAUAAAAGU: 0.222 ratio
CAUUUUACCCUUCGAUUCGAUGAGCUGAAGAUGAGGAACCCCGCUAUUCAGAAUGACUUCAGUUACUAUCGAAGAACAAUAAGUCGUAACCGUAUCAACAACAUGCAUCUAGACAUUGAG: 0.426 ratio
CAUGCAUUUUAUUGGGGAUGGGAGGUUGGAAUAAUUUAUCCAAAUCUAAUGGUAUUAUUUCAUAGGCUAAUCCAGUUUGUAUUUGAGUUAAAGAUCCCAGAGUGUAGUAAUUAAUUGCAG: 2.3 ratio
ACUGUUGUUUAUGGCCCACCUCCUGCUGGGGCCCCCAUGGUGUAUGGGCCUCCACCCCCCAACUUCUCCAUCCCCUUCAUCCCUAUGGGUGUGCUGCAUUGCAACGUCCCUGAACACCAU: 0.317 ratio
AUACAAGUGACUACGAAAGACAUCCUAGUUACAGAGAAAGGAAAUACUGUGUUAGAAUUUUUAGUAGGACUCUUUAAACCUUUUGUGGAAAGCUAUCAGAUAAUUUGCAAGUACCUUUUG: 1.92 ratio
ACAUGCCAAUUGAGUGAAAAAUUUAUCAAAGCUGCCAUUGGCUGUGGUAUUGUAGAAAGCAUACUAAACUGGGUGAAGUUUAAGGCCCAAGUCCAGUUAAACAAGAAGUGUUCAGCUGUA: 0.196 ratio

Study 3 — technique: competition protein-binding microarray; molecule type: double-stranded DNA, one strand shown; medium: in vitro; tested at: 2 µM; with: Cbf1 competitor, 0.05 µM; reading: higher = stronger binding; quantity: fluorescence intensity; all sequences stand within: … GTCTTGATTCGCTTGACGCTGCTG
Target: Phosphate system positive regulatory protein PHO4, full length, GST-tagged (PHO4, Saccharomyces cerevisiae, UniProt P07270, residues 1-312)
Notes: whole 60-bp probe, lowest competitor level
Target sequence (chain): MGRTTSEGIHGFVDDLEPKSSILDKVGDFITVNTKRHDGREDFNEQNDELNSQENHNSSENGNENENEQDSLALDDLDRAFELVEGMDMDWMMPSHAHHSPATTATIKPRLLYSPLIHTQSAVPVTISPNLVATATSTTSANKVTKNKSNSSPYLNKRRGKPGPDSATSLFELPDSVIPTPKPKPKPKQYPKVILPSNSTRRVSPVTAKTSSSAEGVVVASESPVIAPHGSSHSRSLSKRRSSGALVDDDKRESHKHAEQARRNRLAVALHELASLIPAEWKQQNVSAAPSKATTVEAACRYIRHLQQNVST
TCGGGCGCTCTAGGACGCGTGTCGGTCGGGTAACCA: 7050 a.u.
ACAGGTATCTGGGGCAACGTGGGCTTAAGATTAGCC: 15200 a.u.
CGTCCTAGTGATTGGTGTGTGGGTGCCATGAGGAAG: 7330 a.u.
AGGTCGTCGAGGACGCCCGCGACGCAGTCAAACAGG: 3850 a.u.
AAATTACTAAGTTGAGTTGTGGGTGACGCCGTATGA: 4330 a.u.
ACAAACAACTCACTCAACGTGTCCAAAACTTCGTAG: 11900 a.u.
CTTTCCCGATCTTGAACCGTGGGTGTAGCACATTTG: 7430 a.u.
AAGCCCCAAAACGGCCACGTGATGGACTAGTTGCGC: 15300 a.u.
CTAAAGATGACCGGATTCGTGATGGGGCTAGACACA: 3960 a.u.
CGTTTCCTGGGAAATCACGTGCTCTGTCATTGAATT: 17200 a.u.
CATACCCAACCTTGGGTCGTGGGTGAAGATATTTGT: 10100 a.u.
GGAGACACTAATAAGCACGTGAGGGTTTTTGGACAA: 16500 a.u.
TGGCAAGTCTTGTAGCATGTGCGCTAACATCGTTTA: 11900 a.u.
CGTCCTAGTGATTGGTCAGTGGGTGCCATGAGGAAG: 7240 a.u.
CTGATTCGTTGGGCTTACGTGATGGTTCCTGGCATT: 6020 a.u.
GCAATTCTTAGAGGCCACGTGGGCAGAGAGCGGCGC: 20700 a.u.
CGGGGTTAAGTTTGAAGGGTGGGTGGCTTGCAGCAG: 4700 a.u.
TGGGTCCACTTGAAATGCGTGCCGATGAAACGCATT: 9170 a.u.
GTATTGGGGGCTCGGCACGGCGGCTTTAGAACGGCT: 4860 a.u.
TCGCGAGAAACGTTACACGTTGTTTGGATGAAAACA: 11000 a.u.
AAAGCGGTAATTTGGCCAGTGGGTGCAGATATCTAT: 4040 a.u.
CGGGGTTAAGTTTGCCACGTGTTTTGCTTGCAGCAG: 16600 a.u.
TCACTCCTGATGAAGCTCGTGTGAAGGAATTCAACC: 8380 a.u.
CTTTATAAATCTCCACACGTTCCTGTTGGCGATGAT: 15900 a.u.
ACTTTGGAAACTGTTTCCGTGATGGTTTCAGTGCCA: 3500 a.u.

Study 4 — technique: protein-binding microarray; molecule type: double-stranded DNA, one strand shown; medium: in vitro; tested at: 940 nM top; notes: 60-bp whole probe; with: salmon DNA 0.4 mg/ml; baseline: random background probes; reading: higher = stronger binding; quantity: fitted relative affinity; all sequences stand within: GCCTAGCAC … GTCTTGATTCGCTTGACGCTGCTG
Target: Interferon regulatory factor 5, full length, phosphomimetic (IRF5, Homo sapiens, UniProt Q13568-2, residues 1-514, S451D/S453D/S456D/S462D)
GACAATTTCAGTATCGAGACGTGCTAG: 2.95 z-score
TTAGGTTTCCTTCTCCTTCAGTGCTAG: 1.88 z-score
TTATGTATCGGGTATCGGTTAGTGCTA: 4.47 z-score
TTAGGTATCATTATCCTTTAGTGCTAG: 3.97 z-score
TCAAGTTTCTCCTTTGTACTGTGCTAG: 3.1 z-score
TTAGATTTTAGTTTCGATTAGTGCTAG: 10.1 z-score
GACGATTTCAGTATCGTGACGTGCTAG: 1.03 z-score
GACGAACTGGGGTTTAGAGACGTGCTA: -0.0742 z-score
GACGATTTCGGGACTGGAGTCGTGCTA: 0.407 z-score
TTAGGGTTCGGTTCCGGTTAGTGCTAG: 1.46 z-score
TGTGTTATTAAATTTTCACGGGTGCTA: 0.0428 z-score
GACGGACTGGACTTTCGGAACGTGCTA: 0.616 z-score
TCAATGATCTCTCTGGGACTGTGCTAG: -0.178 z-score
GACGGTATCGACACTGGGGCCGTGCTA: 3.76 z-score
TTAGAACTGGGGTATGGATTAGTGCTA: 0.115 z-score
TTAGAACGGGGGACTGGATTAGTGCTA: 1.26 z-score
GTCGATTTCAGACTGGAGACGTGCTAG: -0.107 z-score
GACGGTTTCGGTTCCGGCACGTGCTAG: 14 z-score
GACGGACTGATTTTCCTGACGTGCTAG: -0.247 z-score
GACTGACTGGACTTTCGGGACGTGCTA: 0.647 z-score
TTAGGTTTCGGTTTCGGGTAGTGCTAG: 15.7 z-score
ATGGTCCTCTCTCTATTCAGGTGCTAG: 0.87 z-score
TCAGTTTCTCCTTTCGGACTGTGCTAG: 5.03 z-score
GACGGTATCCTGTTCCTGACGTGCTAG: 0.207 z-score
CTGTCATCATCGTTCCCAGCGTGCTAG: 0.0623 z-score

Some of these lines once more (study 3):
CGTCCTAGTGATTGGTGTGTGGGTGCCATGAGGAAG: 7330 a.u.
TCACTCCTGATGAAGCTCGTGTGAAGGAATTCAACC: 8380 a.u.
CTGATTCGTTGGGCTTACGTGATGGTTCCTGGCATT: 6020 a.u.
GGAGACACTAATAAGCACGTGAGGGTTTTTGGACAA: 16500 a.u.
CGGGGTTAAGTTTGCCACGTGTTTTGCTTGCAGCAG: 16600 a.u.
CTTTATAAATCTCCACACGTTCCTGTTGGCGATGAT: 15900 a.u.
ACTTTGGAAACTGTTTCCGTGATGGTTTCAGTGCCA: 3500 a.u.
CTTTCCCGATCTTGAACCGTGGGTGTAGCACATTTG: 7430 a.u.
TCGGGCGCTCTAGGACGCGTGTCGGTCGGGTAACCA: 7050 a.u.
TGGGTCCACTTGAAATGCGTGCCGATGAAACGCATT: 9170 a.u.
